Experimental data pooled from the literature.
Every numbered part comes from another study and shows a few of its results, in no order.

Series 1 — technique: protein-binding microarray; molecule type: double-stranded DNA, one strand shown; matrix: in vitro; concentration: 0.8 µM; notes: whole 60-bp probe, no competitor; reading: higher = stronger binding; measurement: fluorescence intensity; constant ends, left off below: … GTCTTGATTCGCTTGACGCTGCTG
Target: Centromere-binding protein 1, full length, N-terminal tag (CBF1, Saccharomyces cerevisiae, UniProt P17106, residues 1-351)
Chain of UniProt P17106 (whole entry, looked up): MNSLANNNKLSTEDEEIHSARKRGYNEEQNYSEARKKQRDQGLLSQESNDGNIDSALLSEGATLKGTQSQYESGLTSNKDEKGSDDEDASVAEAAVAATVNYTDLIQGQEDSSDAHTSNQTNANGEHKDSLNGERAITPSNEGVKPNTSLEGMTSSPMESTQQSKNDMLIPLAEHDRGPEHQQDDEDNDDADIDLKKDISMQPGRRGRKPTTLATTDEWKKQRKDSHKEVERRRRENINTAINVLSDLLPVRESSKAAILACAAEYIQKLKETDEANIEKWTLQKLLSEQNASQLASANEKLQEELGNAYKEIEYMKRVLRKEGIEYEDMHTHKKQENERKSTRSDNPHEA
GAAAGGTTTGCCTTCCACGTTGAAGTACTAAAATAG: 516 a.u.
GAAAATGGATTACGCAACATCAGCTTTTTAATTTAG: 543 a.u.
CTACATATTCCTGATCAGATGAAAGTTAACGCTTTC: 578 a.u.
GAAAGCGAATTTCCTCACATGTAGGGACCGAATTAG: 617 a.u.
CTATGGGGAATACATGATGTGAATGTGCATAAATTC: 549 a.u.
CTACTCAGGTACAGTTGCATCAGGTTGATAGTTTTC: 534 a.u.
GAATATTGTTTCTTATTCGTGATGTTGGGTTCATAG: 524 a.u.
CTATTACAAGAGCGCCACGAGGCAAGGAAAAAATTC: 589 a.u.
CTATCGATCATACAGTACATCAGGACCTGCGTATTC: 552 a.u.
TGTACGAAGCTATCACATGACATTATAGTAGTTAGG: 4570 a.u.
TGTACGAAGCTATGGCACGGGATTATAGTAGTTAGG: 962 a.u.
GAACATTCTGTGGTGAATGTGACTGAGCAGTTTTAG: 627 a.u.
GAACACGTTCACCGTTTTCACGTGCACAAATTCTAG: 6360 a.u.
CCTAACTACTATATTCAGGAGATATAGCTTCGTACA: 537 a.u.
GAAAGTCTTAAATAGCACGAGGAAATTTCCATGTAG: 725 a.u.
GAAAATAACAGCAAACAGGTGATGTAACTTATATAG: 662 a.u.
CTAATCAACAGTTAAAACACCACCAATATTTCCTTC: 514 a.u.
CCTAACTACTATAATCATGTGCAATAGCTTCGTACA: 1010 a.u.
CTAATAGTTCCCTCCCTGATGTTGATCTTACTATTC: 497 a.u.
CTAATTTCGATCACCATCGTGGTGCTCTTTGTCTTC: 536 a.u.

Series 2 — technique: RNA Bind-n-Seq; molecule type: RNA; matrix: in vitro; concentration: not given; reference: input RNA pool; reading: higher = stronger binding; measurement: bound/input enrichment
Target: RING finger protein unkempt homolog, zinc fingers 1-6, GST-SBP tag (UNK, Homo sapiens, UniProt Q9C0B0, residues 30-357)
Notes: RNA with constant flanks, human-mouse chimeric sites, ends assumed
Constant ends, left off below: GGGAGUUCUACAGUCCGACGAUC … CAACAGAGGAUUGAGCAUCA
Construct (chain): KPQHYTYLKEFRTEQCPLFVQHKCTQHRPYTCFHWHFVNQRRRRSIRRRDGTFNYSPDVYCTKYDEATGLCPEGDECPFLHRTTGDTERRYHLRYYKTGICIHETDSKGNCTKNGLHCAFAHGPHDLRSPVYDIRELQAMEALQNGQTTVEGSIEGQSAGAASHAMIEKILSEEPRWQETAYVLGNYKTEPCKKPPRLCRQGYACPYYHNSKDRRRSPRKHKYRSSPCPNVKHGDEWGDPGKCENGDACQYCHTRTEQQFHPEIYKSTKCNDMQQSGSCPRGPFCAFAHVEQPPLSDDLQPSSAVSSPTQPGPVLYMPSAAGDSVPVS
GAAACAUUUAAAUUUAAAGAAGCUGUUGUUCUAGGAAGUACGGACUUCCUAGAAGAUGAUAUAGAGAAAAUUGUAGAAGAACUGGGAAAAGAGUAUAAGGGCAACGCCUACCAUCUGAUG: 1.3 ratio
CUGAAAAACACAGAUAUCAAAGUUGUUGAUUUUGGAAGUGCAACGUAUGAUGAUGAACAUCACAGUACUUUGGUGUCUACCCGGCACUACAGAGCUCCCGAGGUCAUUUUGGCUUUAGGU: 0.505 ratio
GGCCUGGGACCGUCCUGGGCUAGUACAAAUAGCGGCAGUGGAGGCUCGAGAGGAAAGUUUGUUAGUGAGGCAGUGGUUAGAGGCCGUCAUGUACGGUCCUUUACUCGAUAGAUGUGUUCU: 0.672 ratio
CUGAGGAUACCACUGAAGAGACCUUAAAAGAAUCAUUUGAGGGCUCUCGUUCGGGCAGAAUAGUCACUGAUCGGGAAAACUGGGUCCCCAAAGGGUUUGGUUUUGUAGACUUUAAUAGUG: 0.564 ratio
GUGACUGGUGUUAAGAUUUCCCCUCAGCAAAGAAGUGCAGUAGUCACCAUAAUUCCAUCUGUGGUGAGUGCCAGUCAGAUUGUGGAGCUGGUCCCAGAACUCAGUUUAGAUACUGGGACU: 0.42 ratio
UAAGUCCUGUGCCAGCAAUUUAUCCCAAAAGUUUUAAAUUCUGGACCAAUAGUGUUUGUUUCCUGAUUUUUGUAUUCAAUACUUUGCCUAGUAUGUAACUCACUCUUACUGAUAAUAAAA: 1.76 ratio
UCAACAGACAACAUCAAAUACCAGCCUAAAGGGGGGCAGGUACAAAUUGUUACUAAGAAAAUAGACCUAAGCCAUGUGACAUCCAAAUGUGGCUCUCUAAAGAACAUCCGCCACAGGCCA: 0.619 ratio
GUUGCCAGCUUCCGGUUCCGUUGGGCUCGGUUCUCUCCUGAGCUACGGUCCCUGGCAUUUUAGGUGUGCCAUCCAACAAACAUGGAUCAGGUAAUGCAGUUUGUGGAGCCCAGCCGGCAG: 0.125 ratio
CAGGGCAUCAUCUCUCGUGCUGUUAGACACCUGUUCAAGAGUAUUGAUGAGAAAAAGCACAUAGCAAUUAAAAACGGGCUUCCUGCUCCUGAAUUCAAAGUGAAUGCCCAGUUCCUAGAG: 0.803 ratio
CUGAAAAACACAGAUAUCAAAGUUGUUGACUUUGGAAGUGCAACGUAUGAUGAUGAACAUCACAGUACUUUGGUGUCCACAAGGCACUACAGAGCUCCAGAGGUCAUUUUGGCUUUAGGU: 0.217 ratio
AGAGAUAAGACAUCCAGGAACAUGCGAGGCUCCCGGAUGAAUGGGUUUCCAAGUCCCACUCAUAGUGCCCACUGUAGCUUCUACCGAACCAGAACCUUGCAGGCACUGAGUAAUGAGAAG: 0.0963 ratio

Series 3 — technique: RNA Bind-n-Seq; molecule type: RNA; matrix: in vitro; concentration: 365 nM; reference: no-protein control; reading: higher = stronger binding; measurement: RBNS enrichment (R)
Target: RNA binding protein fox-1 homolog 2, RRM domain, GST-SBP tag (RBFOX2, Homo sapiens, UniProt O43251-10, residues 100-194)
Notes: natural RNA segment, single round, ends assumed
Constant ends, left off below: GGGAGUUCUACAGUCCGACGAUC … UGGAAUUCUCGGGUGCCAA
Residues (chain): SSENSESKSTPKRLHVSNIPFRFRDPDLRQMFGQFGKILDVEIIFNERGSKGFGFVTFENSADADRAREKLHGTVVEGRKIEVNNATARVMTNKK
CUUCUAAUCUGGAAACCUGUGAAGCCUCAGCCCUUGAGAGGGCCCGAGAUGGAUCAGGGAGUUCUAGCUGCACACACCCCGAGCGCCUGAGCCCUCAGAAUGCCCACCAU: 0.311
UGCUAAAGGUUGUUCUCCUGGGGGAACAGAGUGACUGAAACUGGCUUGUUUGCUACAAGCCCUACCCUCCACUCUUUCAUUCCUUGAAAGCAGUUUGCCUGGUCAGUCAG: 0.733
UCCUAUGCUGGAGUUUUGAUUUUUAACUAAACGCAAAUCUGUAGAUUCUCUCCUCUCCCAUCCCAGAAAACAAAACAAAAUAAUGCUUUUCGAAAUUGUUUCUAGGACUU: 0.626
UCGGGCACCACCAGCCAUCCCCGAGUGCCCUGUAGCCACUCACCACUGCUGCCACCUCUCUGGCCAAUGGCCCUUUCACUGGCCUGGUGACUGGAAUGUGGGCAGCGCCC: 0.38
UAACAUACAGGCAUGGGAAUCCUGCCUCUUAGCUUUUCCCACCCUCUUGUCUCACCAAGUUUUUUCUCUCCAAAGGUUUCCAGGAAUUUCUCAUUAAUGGCUGAUGCAAA: 0.381
GUAGUGCUUCAUAUACUUUGGGGACGUAAUAUAGGAGAUAGUCUUACAUAAGUAAUAUAGAAACAGCCACAUUUGUCCAUUAAUGCAUAAGAAGCAAAGUAAAGUUUUCU: 0.34
CUAAUAUCUUUAAAUAUAUAUAUAUAUUUUAAAGACCAAUUUAUGGGAGAAUUGCACACAGAUGUGAAAUGAAUGUAAUCUAAUAGAAGCCUAAUCAGCCCACCAUGUUC: 1.11
CUGCCAUUUUCUACUUAAUUUCAAAGCCCAGUUUUAAGUAACUGGACUACACUGUUGACCUACCCAUGUGACAGUUGUUUUGUUAGAUGGAGAUGUUGCGUUACUAUGGA: 0.303
GCUUCAGUAGUAGCUAAGCCAUUAAUACAGUUUGCAUCAAUUUCCCCAUUUAUUUAUAAUCAGCCUUUCUUUUAGUCCUAGUGCCUGAAUCAAUGAGUGAGAAUACUAGU: 0.517
CAGUAUUCUGUUCCCCAGGCAUACAGCAUCAUAUAUUAAAGCCACAGCAGAAGAGGAAUGUCGCCCACUGAGGCCACCCAGAUGCAGAGUCUAGGAUUCCUUGCCCACUG: 1.1
AAAAGUUAGCAGUUUGUUUUGUCAACUUGUAACUGGGUCAUAGCCUUGCUGAGUGAAACCAACUCAUUUCUGAUUGGGCACAAAGAACUGCAUUCUUUGGACGUGUGAAU: 0.427
GCAAGUUGUGAGGAAAGGUCCUCAGAACAUGGGAUUCCACAUGAGGAAUCCUUAGGCUGCCAGGAAGCCAGAGGGGUUUAGAGGUGCUCAGCUUUGAGCCCCAGUAUGCA: 3.68

Series 4 — technique: protein binding microarray; molecule type: double-stranded DNA, one strand shown; matrix: in vitro; concentration: not given; reference: not given; reading: higher = stronger binding; measurement: E-score
Target: Histone acetyltransferase KAT6A, both winged helices, GST fusion (KAT6A, Homo sapiens, UniProt Q92794, residues 1-181)
Notes: 8-mer, flanks averaged, mean of 2 arrays, mostly near background
Construct (chain): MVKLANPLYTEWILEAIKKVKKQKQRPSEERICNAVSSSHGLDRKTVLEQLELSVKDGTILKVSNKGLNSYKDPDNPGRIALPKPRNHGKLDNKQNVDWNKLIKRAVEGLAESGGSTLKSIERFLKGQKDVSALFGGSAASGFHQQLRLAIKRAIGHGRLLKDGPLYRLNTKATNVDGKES
TGAATCAA: 0.0357
AATATTGT: -0.0233
TACCGACA: 0.0602
CCGTATAC: 0.119
CTGCAGTA: -0.0977
CACCTTCC: -0.0775
CTTCCGGC: 0.116
AAGACTGA: -0.119
TAGTGGGA: -0.283
GTATAATA: 0.00308
ATTAACGC: 0.211
CCCGGCGA: 0.276
CATCGCTA: -0.0111
CCCGCCCG: 0.349
GTTTCGTA: 0.0407
AGCTTACT: -0.139
TCTAGGCA: -0.21
AAGATTTC: -0.0493
AGGTACAC: -0.103
GATCGTTA: 0.0619
CAAGCTCA: -0.113

Some of these lines once more (series 3):
CUUCUAAUCUGGAAACCUGUGAAGCCUCAGCCCUUGAGAGGGCCCGAGAUGGAUCAGGGAGUUCUAGCUGCACACACCCCGAGCGCCUGAGCCCUCAGAAUGCCCACCAU: 0.311
UGCUAAAGGUUGUUCUCCUGGGGGAACAGAGUGACUGAAACUGGCUUGUUUGCUACAAGCCCUACCCUCCACUCUUUCAUUCCUUGAAAGCAGUUUGCCUGGUCAGUCAG: 0.733
UCCUAUGCUGGAGUUUUGAUUUUUAACUAAACGCAAAUCUGUAGAUUCUCUCCUCUCCCAUCCCAGAAAACAAAACAAAAUAAUGCUUUUCGAAAUUGUUUCUAGGACUU: 0.626
